Experimental data gathered from unrelated publications.
Numbered parts are unrelated; each lists some results of a single study. Positions count from the first letter of the parent shown.

Sample 1
Target: Sal-like protein 4, full length isoform B (SALL4, Homo sapiens, UniProt Q9UJQ4-2, residues 1-616)
Technique: universal PBM
Form: double-stranded DNA, one strand shown
Medium: in vitro
Tested at: not given
Setting: 8-mer, flanks averaged, mean of replicates
Direction: higher = stronger binding
Target sequence (chain): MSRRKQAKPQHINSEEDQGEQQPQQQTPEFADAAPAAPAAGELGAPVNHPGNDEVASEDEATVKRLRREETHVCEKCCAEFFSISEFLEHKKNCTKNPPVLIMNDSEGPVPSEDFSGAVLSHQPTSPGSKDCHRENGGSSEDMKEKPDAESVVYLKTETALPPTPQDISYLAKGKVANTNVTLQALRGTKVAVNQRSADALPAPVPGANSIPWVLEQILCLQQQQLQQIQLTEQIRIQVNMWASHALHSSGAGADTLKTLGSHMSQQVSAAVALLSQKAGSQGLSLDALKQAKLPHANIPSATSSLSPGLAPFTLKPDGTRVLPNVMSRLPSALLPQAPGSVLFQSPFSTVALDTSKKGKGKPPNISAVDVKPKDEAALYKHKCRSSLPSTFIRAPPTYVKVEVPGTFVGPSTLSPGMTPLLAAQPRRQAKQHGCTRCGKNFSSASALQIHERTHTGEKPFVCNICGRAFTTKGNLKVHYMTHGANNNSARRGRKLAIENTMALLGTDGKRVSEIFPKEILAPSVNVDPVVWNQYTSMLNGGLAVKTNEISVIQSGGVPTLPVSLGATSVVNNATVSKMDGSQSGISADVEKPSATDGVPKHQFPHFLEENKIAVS
`CCACTGGC` gave an E-score of -0.287.
`GCATGGCA` has an E-score of 0.00139.
For `ACCGTCAT`, the E-score was -0.0289.
`CAATCTAA` gave an E-score of 0.125.
`ACCGCCTC` has an E-score of -0.256.
`ATACGCGA` has an E-score of 0.0741.
`ATGTCCTG` has an E-score of -0.072.
With `CCGGATAA` the E-score was 0.0283.
With `GGTCTCGA` the E-score was -0.142.
The E-score of `ATTAATTG` is reported as 0.375.
`CCAGCACA` gave an E-score of -0.0284.
With `TCTAGTAA` the E-score was 0.286.
`CTAATTTA` has an E-score of 0.288.
For `CTCCAATC`, the E-score was -0.214.
`ACTGTGTA` has an E-score of 0.0656.
For `GCCTCTCA`, the E-score was -0.17.
`AAGGGTAG` has an E-score of -0.0283.
For `ATCGGGCG`, the E-score was -0.26.
For `AACTTCTT`, the E-score was 0.0231.
For `AAGATAGT`, the E-score was 0.132.
The E-score of `CTCCTGTC` is reported as 0.0225.

Sample 2
Target: Ras GTPase-activating protein-binding protein 1, C-terminal RGG region (G3BP1, Homo sapiens, UniProt Q13283)
UniProt Q13283, sequence (whole entry, looked up): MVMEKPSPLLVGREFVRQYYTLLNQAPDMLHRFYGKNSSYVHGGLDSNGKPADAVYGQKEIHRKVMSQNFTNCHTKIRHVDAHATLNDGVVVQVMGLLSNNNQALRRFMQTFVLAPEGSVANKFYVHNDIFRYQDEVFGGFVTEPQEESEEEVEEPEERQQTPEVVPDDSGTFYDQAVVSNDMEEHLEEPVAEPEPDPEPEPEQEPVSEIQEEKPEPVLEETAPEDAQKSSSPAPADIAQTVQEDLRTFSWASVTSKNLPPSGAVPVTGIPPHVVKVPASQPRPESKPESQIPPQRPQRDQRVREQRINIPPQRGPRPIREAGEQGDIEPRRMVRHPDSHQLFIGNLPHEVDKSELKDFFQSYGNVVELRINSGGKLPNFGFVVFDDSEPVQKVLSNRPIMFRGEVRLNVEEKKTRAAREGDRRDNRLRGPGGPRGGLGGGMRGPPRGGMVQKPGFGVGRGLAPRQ
Technique: RNA Bind-n-Seq
Form: RNA
Medium: in vitro
Tested at: 1 µM
Setting: whole 134-nt RNA, ends assumed
With: 150 mM KCl
Relative to: input library
Direction: higher = stronger binding
All sequences stand within: GGGAGUUCUACAGUCCGACGAUC … UGGAAUUCUCGGGUGUCAAGG
With `UAACUUUAGAGGAUGAUCUGAUGGAUAUGGCAGUGGACGUGGAUUUGGGGAUGGCUAUAAUGGGUAUGGAGGAGGACCUGGAGGUGGCAA` the log2 enrichment was -1.25.
With `UGCUGGUGAGCUGCUGCCUGGCAGGCCACGUCUGCGUGUGGGACGCGCAGACCGGGGAUUGCCUAACGCGCAUUCCGCGCCCAGGGUAGG` the log2 enrichment was -1.31.
`UGUGCUACACAUCGUAUGUACCGAAUCGGGGUUUUUUUGGGGAAAAAGGGGUUUUUUUGGGGAAAGUAUUAUGUUACGCCGUUCGGAUCU` has a log2 enrichment of 0.716.
The log2 enrichment of `UAACUUUAGAGGAGGAUCUGAUGGAUAUGGCAGUGGACGUGGAUUUGGGGAUGGCUAUAAUGGGUAUGGAGGAGGAGCUGGAGGUGGCAA` is reported as 0.0175.
`GUCCUGUGCUACACAUCGUAUGUACCGAAUCGGGGUUUGGGGAAAAAAAGGGGUGGGGAAAGUAUUAUGUUACGCCGUUCGGAUCUGCAC` has a log2 enrichment of 1.68.
The log2 enrichment of `AGUCCUGUGCUACACAUCGUAUGUACCGAAUCGGGGUUUUGGGUUUUGGGGUUUUGGAAAGUAUUAUGUUACGCCGUUCGGAUCUGCACU` is reported as -0.788.
`CACAGACAACACGCACCCACACAGACACAGAGGGAAGGGGUUGGGAUGGGGACAGGGAGCACAGCAGGGCGGGGUAGGACCCCAGCCCCU` gave a log2 enrichment of -0.746.
The log2 enrichment of `AAGUCCUGUGCUACACAUCGUAUGUACCGAAUCGGGGUGGGGUUUUUGGGGUGGGGAAAGUAUUAUGUUACGCCGUUCGGAUCUGCACUU` is reported as 2.26.
`CUCAAGUCCUGUGCUACACAUCGUAUGUACCGAAUCGGAAAGGAAAGGGAAAGGAAAGUAUUAUGUUACGCCGUUCGGAUCUGCACUUCC` gave a log2 enrichment of -1.47.

Sample 3
Target: CCNB3, cyclin fold, Cln2 fusion (human)
Technique: yeast growth competition, sequencing
Medium: yeast
Setting: weak parent motif
Relative to: not given
Direction: higher = stronger binding
Parent: ORC1 docking peptide (human); PRARKRLELGNLG; partner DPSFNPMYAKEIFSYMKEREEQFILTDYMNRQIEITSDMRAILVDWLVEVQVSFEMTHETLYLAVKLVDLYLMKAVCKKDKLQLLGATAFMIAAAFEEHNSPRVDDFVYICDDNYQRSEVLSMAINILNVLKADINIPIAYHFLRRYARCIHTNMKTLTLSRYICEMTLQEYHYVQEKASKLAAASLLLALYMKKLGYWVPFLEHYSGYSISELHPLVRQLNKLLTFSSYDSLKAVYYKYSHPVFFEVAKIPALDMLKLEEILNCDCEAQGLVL
Under “normalised enrichment score”, `G10E` is recorded as 0.43.
Under “normalised enrichment score”, `R4V` is recorded as 0.0343.
`A3R`: “normalised enrichment score” -0.0552.
Under “normalised enrichment score”, `L12E` is recorded as 0.15.
For `K5A L7A`, “normalised enrichment score” read 0.0544.
`G13A` — result for “normalised enrichment score”: 0.103.
`R2L`: “normalised enrichment score” -0.177.
`L12V`: “normalised enrichment score” 0.0658.
For `G13W`, “normalised enrichment score” read -0.505.
`L9V`: “normalised enrichment score” 0.521.
`P1I` — result for “normalised enrichment score”: -0.129.
`K5R`: “normalised enrichment score” 0.252.
Under “normalised enrichment score”, `R4F` is recorded as 0.304.
Under “normalised enrichment score”, `L7N` is recorded as -0.253.
`E8S`: “normalised enrichment score” 0.241.
Under “normalised enrichment score”, `N11V` is recorded as 0.464.
`R4G`: “normalised enrichment score” 0.321.
`P1C` — result for “normalised enrichment score”: 0.667.
`K5W` — result for “normalised enrichment score”: 0.124.
For `R4W`, “normalised enrichment score” read 0.0981.
`G10R` — result for “normalised enrichment score”: -0.244.
For `R4P`, “normalised enrichment score” read 0.139.
`R2W`: “normalised enrichment score” 1.01.
`G10V`: “normalised enrichment score” 0.142.
For `E8A`, “normalised enrichment score” read 0.139.

Sample 4
Target: RNA binding protein fox-1 homolog 2, RRM domain, GST-SBP tag (RBFOX2, Homo sapiens, UniProt O43251-10, residues 100-194)
Technique: RNA Bind-n-Seq
Form: RNA
Medium: in vitro
Tested at: 365 nM
Setting: natural RNA segment, single round, ends assumed
Relative to: no-protein control
Direction: higher = stronger binding
All sequences stand within: GGGAGUUCUACAGUCCGACGAUC … UGGAAUUCUCGGGUGCCAA
`UCUGUUCCUUUUGGCUCUAAUAUGCUACAACUGUAGGCCAAUUAUCACUUUACCAAUUAAGAGUUAGGCCAGAUAAGUGAAAUUUAACUUAAGGGCACACAGCUAAUAAG` — result for “RBNS enrichment (R)”: 0.401.
`CCAAAAAAUGCAUGAACUCCUGCUUUUCAAUCUGAUUACCUCAAACUGAAAAGCAGGUGAAAGGAGGAAUAUUUCAGUGUGUUUUUACAUCUGAAUCCAAGGGAUCCAAG` — result for “RBNS enrichment (R)”: 16.1.
For `GACUUUCCCAUUCUCAGCUGAGGUUGGAAGAAACCACUCUGGGUGUCCUUUCUGGGACCUGUCUGCAUAACCCUCCCCAUCCUGGCUCUCCUGCAUCUUCUUACCCUUUA`, “RBNS enrichment (R)” read 0.903.
Under “RBNS enrichment (R)”, `CAUAGUGCUUUGCACAUAGUCGUCACUCAGUGUUUGUUAAUAAAGCUACUAGUGUCAUUAAAACUCUUAGACAGUAUGUGGAUUUUUGUUUUCAGGUUUUUUAAAAAAUU` is recorded as 0.452.
For `AAGAUCAUGGCAGGCAGCAAGUGAGCCCCAGCUGGACUCAUGGAUGUGCACCCUUUGCUCCCUGCUCUUUCUGCCUCUGGGCUCAUGUAUCUGCGCAGCUCUGGUACCCU`, “RBNS enrichment (R)” read 0.403.
For `CGCGUCUUUGACGGUGGGUGUCCCAUUUUUAUCCGCUACUCUUUAUUUCAUGGAGUCGUAUCAACGCUAUGAACGCAAGGCUGUGAUAUGGAACCAGAAGGCUGUCUGAA`, “RBNS enrichment (R)” read 0.377.
`GAGCCAUUGAGUAGGGAAUUGUAUUGGAUGAUGGUUUUCAUUUUUGUUACUGAAAACAAAGUCUUGUCUAGCACCGUGAGAAUCAUUAAAAAUAAAAUGGCAAUUUUAGC`: “RBNS enrichment (R)” 0.984.
`CUGUGUUGUAGCAGUGAUGUCAGUCCAUUGAUUGUCUUUAGAGAGUUAAUGUUACAAAAAAGAAUUCUUAAUAAUCAGACAAACAUGAUCUGCUGAGGACACAUGCGCUU` — result for “RBNS enrichment (R)”: 0.374.

Sample 5
Target: ABI1, truncated, D143A, DHFR fusion (Arabidopsis thaliana)
Technique: DHFR PCA, deep sequencing
Medium: yeast
Setting: methotrexate growth selection, single substitutions
With: (+)-ABA 710 µM
Relative to: wild-type fitted maximum
Direction: higher = stronger binding
Parent: PYL1, truncated, DHFR fusion (Arabidopsis thaliana); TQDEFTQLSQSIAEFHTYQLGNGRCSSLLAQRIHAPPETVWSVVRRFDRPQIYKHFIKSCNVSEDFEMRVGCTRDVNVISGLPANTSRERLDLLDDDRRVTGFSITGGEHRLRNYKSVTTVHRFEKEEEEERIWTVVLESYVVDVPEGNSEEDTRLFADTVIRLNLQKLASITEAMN
Under “relative binding score”, `F124P` is recorded as 90.6%.
Under “relative binding score”, `N114Y` is recorded as 59.7%.
Under “relative binding score”, `R113C` is recorded as 104%.
`Y115Q`: “relative binding score” -8.42%.
For `A158Y`, “relative binding score” read 2.94%.
For `V137C`, “relative binding score” read 88.7%.
Under “relative binding score”, `E151T` is recorded as 98.7%.
Under “relative binding score”, `D96W` is recorded as 55.3%.
`E4P` — result for “relative binding score”: 99.5%.
`H122P` — result for “relative binding score”: 8.04%.
`V76F` — result for “relative binding score”: 20.4%.
For `A170Y`, “relative binding score” read 39.3%.
`V76P` — result for “relative binding score”: 0.394%.
Under “relative binding score”, `S11Q` is recorded as 108%.
`R49I`: “relative binding score” 84.6%.
`K58H`: “relative binding score” 103%.
Under “relative binding score”, `P36T` is recorded as 97.2%.
Under “relative binding score”, `Q31N` is recorded as 71.6%.
`Q7I`: “relative binding score” 98.4%.

Further values, each from its own experiment
For `PhoQ, residues 284 288 289 292 302 303 SSTLSG`, the fold induction was 14.4 (PhoP, residues 12 14 15 18 19 VQGLL (Escherichia coli, UniProt P23836); Sort-seq, refers to: YFP reporter; E. coli; PhoQ-PhoP variant library, with: 10 µM Mg2+; relative to: high Mg2+ state, higher = stronger signaling).
